# Measured values collected from several papers.
# Values joined by “and” are separate records of one study, mostly repeats; a detail may differ. ± gives the spread as reported.
Compound,tested on,test,system,setting,scale,endpoint,value
CO[C@H]1/C=C/O[C@@]2(C)Oc3c(C)c(O)c4c(c3C2=O)C2=NC3(CCN(CC(C)C)CC3)NC2=C(NC(=O)/C(C)=C\C=C\[C@H](C)[C@H](O)[C@@H](C)[C@@H](O)[C@@H](C)[C@H](OC(C)=O)[C@@H]1C)C4=O,Mycobacteroides abscessus,bacterial growth,subsp. abscessus Bamboo,,,IC90,5.87 µM
C[C@@H](O)[C@H]1C(=O)N2C(C(=O)O)=C(SCCN=CN)C[C@H]12,Escherichia coli,,"2904, female ICR mice, peritonitis, heart","dose not given, 168 h",,bacterial load,3.43 log CFU and 3.82 log CFU and 4.16 log CFU and 3.7 log CFU and 3.98 log CFU
Cc1c(CN(C)C(=O)/C=C/c2cnc3c(c2)CCC(=O)N3)oc2ccccc12,Klebsiella pneumoniae,broth microdilution,AR-0098,,,MIC,> 32 µg/mL
Nc1ncncc1-c1cn([C@@H]2O[C@](F)(CO)[C@@H](O)[C@H]2O)cn1,Dengue virus,viral replication,"Huh-7, DENV-4",48 h,,EC50,> 100 µM
CC(C)C[C@H](NC(=O)[C@H](Cc1cccc2ccccc12)NC(=O)OCc1ccccc1)C(=O)NC(C[C@@H]1CCNC1=O)C1OC1S(C)(=O)=O (stereo partly shown),Norwalk virus,"RT-qPCR, measured: replicon RNA","HG23, GI-1 replicon",96 h,,EC90,> 20 µM
Cc1ccc(N(c2ccc(NC(=O)CN(C)c3ccccc3N3CCCC3=O)cc2)C(C)C)cc1,Plasmodium falciparum,"parasite growth, LDH activity",3D7 asexual stage,72 h,,EC50,0.005 µM
COc1cc(C#CC(=O)c2ccccc2)ccc1O,Pseudomonas aeruginosa,static biofilm,PA14,"10 µM, 24 h, static",relative to: DMSO,biofilm formation,46%
Cn1cc(-c2ccc(-c3cncc(Cl)c3N3CCC4(CCNC4=O)CC3)cc2)cn1,COLO 205,"gene expression, microarray, measured: ANKRD37 mRNA",,"concentration not given, 6 h",relative to: untreated cells,log2 fold change,3.72
Cc1c(CN(C)C(=O)/C=C/c2cnc3c(c2)CC(NC(=O)OC(C)(C)C)C(=O)N3)oc2ccccc12 (stereo not shown),Klebsiella pneumoniae,broth microdilution,AR-0098,,,MIC,> 32 µg/mL
COc1ncc(-c2cn([C@@H]3O[C@](F)(CO)[C@@H](O)[C@H]3O)cn2)cn1,Dengue virus,viral replication,"Huh-7, DENV-2",48 h,,EC50,> 100 µM
CC(C)c1ccc(/C=C2\N=C(SCc3ccc([N+](=O)[O-])cc3)N(c3ccccc3)C2=O)cc1,Fusarium solani,,,concentration not given,,inhibition zone diameter,15 ± 0.59 mm
CC(C)n1ncc2c(C(=O)NCC3(C)CNC3)cc(C3CC3)nc21,Enterovirus D68,viral replication,"RD, US/MO/14-18947",3 µM,relative to: untreated,plaque area,0%
Nc1nc(-c2ccccc2)nc2[nH]nc(Nc3ccc(C(F)(F)F)cc3)c12,coxsackievirus B3,,"31-1-93, NMRI mice, CVB3 chronic myocarditis","oral, 100 mg/kg twice daily, day 12, dosed days 1 to 7, score scale 0 to 7",direction not given,clinical score,0.22
CC(C)C[C@H](NC(=O)C[C@H](O)[C@H](CC(C)C)NC(=O)[C@H](Cc1c[nH]cn1)NC(=O)CNC(=O)[C@@H](NC(=O)[C@H](C)NC(=O)[C@H](Cc1c[nH]c2ccccc12)NC(=O)[C@H](CCC(N)=O)NC(=O)[C@@H](Cc1ccccc1)NC(=O)COCCOCCNC(=O)CCC(C(=O)O)N1CCN(CC(=O)O)CCN(CC(=O)O)CCN(CC(=O)O)CC1)C(C)C)C(N)=O (stereo partly shown) [lutetium-177 labelled],,,"BALB/c nu/nu mice, carcass","50 pmol, 1 h, added: PA 300 µg",,tissue uptake,2.8 ± 0.4 %ID
CNC(C)C1CCC(N)C(OC2C(N)CC(N)C(OC3OCC(C)(O)C(NC)C3O)C2O)O1 (stereo not shown),Pseudomonas aeruginosa,,clinical isolate RKI-No_130/15,,,MIC,2 µg/mL
Cc1cc(OC(C)C)ccc1C(=O)C(C)(C)NC(=O)c1sccc1C,Botrytis cinerea,mycelial growth,B05.10,0.3 µg/mL,,inhibition,100%
CCCCCCCCCCCCCCCCCCOCC(O)CO (stereo not shown),human iPSC-derived cardiomyocytes,"MyBP-C/MYH ratio, plate-normalised SD score",,"concentration not given, primary screen",direction not given,activity score,3.3
COc1ncc(-c2cn([C@@H]3O[C@](F)(COC(=O)C(C)C)[C@@H](OC(=O)C(C)C)[C@H]3OC(=O)C(C)C)cn2)cn1,Dengue virus,viral replication,"Huh-7, DENV-2",48 h,,EC50,> 100 µM
COC(=O)[C@H](Cc1ccc(O)cc1)NCc1cc2ccccc2nc1SC,Pseudomonas aeruginosa,,,"128 µg/mL, added: pentamidine 100 µM",relative to: control,growth,52%
C[C@@H](CO)CCC[C@@H](C)[C@H]1CC[C@H]2[C@@H]3CC=C4C[C@@H](O)CC[C@]4(C)[C@H]3CC[C@]12C,human rotavirus,viral replication,"MA104, Wa",,,EC90,1.73 µM
CCc1nn(C)c2nc(-c3ccc(C(=O)O)cc3)nc(NCc3ccc(F)cc3)c12,Cryptosporidium parvum,"parasite growth, immunofluorescence imaging","HCT-8, Iowa",53.9 µM,,inhibition,93.4% and 93.9%
C[C@@H](O)[C@H]1C(=O)N2C(C(=O)O)=C(S[C@@H]3CN[C@H](C(=O)N(C)C)C3)[C@H](C)[C@H]12,Klebsiella pneumoniae,,"ATCC 700603, mouse lung infection, lung","intraperitoneal, 10 mg/kg, 24 h",,reduction of bacterial load,90%
Cc1cc(Nc2ccc(S(F)(F)(F)(F)F)cc2)n2nc(C(C)(F)F)nc2n1,Plasmodium vivax,,human Plasmodium vivax malaria patients,"oral, 800 mg",,patients with blurred vision,0%
N#Cc1c(-c2ccc(OCc3ccccc3)cc2)c(C(N)=O)c(N)n(N)c1=O,Escherichia coli,time-kill,,"1 x MIC, 30 min",,viable count,2.69 log CFU/mL
CC(=O)NC[C@H]1CN(c2ccc(N3CCOCC3)c(F)c2)C(=O)O1,Streptococcus pneumoniae,,PRSP,10 isolates,,MIC50,0.5 µg/mL
CCOC(=O)c1ccccc1-c1c2ccc(=O)cc-2oc2cc(OC3C=C(C)C(=O)O3)ccc12 (stereo not shown),Phelipanche ramosa,stimulant,,1 µM,relative to: (±)-GR24,maximum germination stimulation,91%
COC(=O)[C@H](Cc1c[nH]c2ccccc12)NCc1cc2ccccc2nc1OC,Pseudomonas aeruginosa,,,"32 µg/mL, added: pentamidine 100 µM",relative to: control,growth,37.5%
COc1ncc(-c2cn([C@@H]3O[C@](F)(COC(=O)C(C)C)[C@@H](OC(=O)C(C)C)[C@H]3OC(=O)C(C)C)cn2)c(N)n1,Dengue virus,viral replication,"Huh-7, DENV-2",48 h,,EC50,> 100 µM
CC(C)c1ccc(/C=C2\NC(=S)N(c3ccccc3)C2=O)cc1,Fusarium solani,,,concentration not given,,inhibition zone diameter,15 ± 0.85 mm
CC(C)C(=O)OC[C@@]1(F)O[C@@H](n2cnc(-c3cnc(N)[nH]c3=O)c2)[C@H](OC(=O)C(C)C)[C@@H]1OC(=O)C(C)C,Dengue virus,viral replication,"Huh-7, DENV-2",48 h,,EC50,> 100 µM
NC(=O)c1ncn([C@@H]2O[C@H](CO)[C@@H](O)[C@H]2O)n1,Potato virus Y,in vivo,,500 µg/mL,,inactivation activity,61% and 50% and 55%
COc1ncc(-c2cn([C@@H]3O[C@](F)(CO)[C@@H](O)[C@H]3O)cn2)c(N)n1,Dengue virus,viral replication,"Huh-7, DENV-2",48 h,,EC50,> 100 µM
N=C(N)c1ccc(OCc2ccc(Br)cc2COc2ccc(C(=N)N)cc2)cc1,Klebsiella pneumoniae,checkerboard,ATCC 13883,"unit not given, added: rifampicin",lower = stronger synergy,FICI,≤ 0.031
COc1nc(N)ncc1-c1cn([C@@H]2O[C@](F)(COC(=O)C(C)C)[C@@H](OC(=O)C(C)C)[C@H]2OC(=O)C(C)C)cn1,Dengue virus,viral replication,"Huh-7, DENV-2",48 h,,EC50,2.3 µM
O=C(OCC(O)CO)c1ccccc1Nc1ccnc2cc(Cl)ccc12 (stereo not shown),human iPSC-derived cardiomyocytes,"MyBP-C/MYH ratio, plate-normalised SD score",,"concentration not given, primary screen",direction not given,activity score,3.9
CCOc1nc(N)ncc1-c1cn([C@@H]2O[C@](F)(COC(=O)C(C)C)[C@@H](OC(=O)C(C)C)[C@H]2OC(=O)C(C)C)cn1,Dengue virus,viral replication,"Huh-7, DENV-4",48 h,,EC50,27 µM
CC1(C)S[C@@H]2[C@H](NC(=O)[C@H](N)c3ccccc3)C(=O)N2[C@H]1C(=O)O,Pseudomonas aeruginosa,,clinical isolate RKI-No_130/15,,,MIC,> 16 µg/mL

# Repeated from above:
Compound,tested on,test,system,setting,scale,endpoint,value
CCCCCCCCCCCCCCCCCCOCC(O)CO (stereo not shown),human iPSC-derived cardiomyocytes,"MyBP-C/MYH ratio, plate-normalised SD score",,"concentration not given, primary screen",direction not given,activity score,3.3
COc1ncc(-c2cn([C@@H]3O[C@](F)(COC(=O)C(C)C)[C@@H](OC(=O)C(C)C)[C@H]3OC(=O)C(C)C)cn2)cn1,Dengue virus,viral replication,"Huh-7, DENV-2",48 h,,EC50,> 100 µM
